{"data": "Published values pooled from the literature", "note": "Each line is one published result; not all experiments were run side by side. ± marks the error that the study gave."}
{"SMILES": "CSCC[C@@H]1NC(=O)CCCC(=O)NCCCC[C@@H](C(N)=O)NC(=O)[C@H](CO)NC(=O)[C@H]([C@@H](C)O)NC(=O)[C@H](CO)NC(=O)[C@H](CO)NC(=O)[C@H](CC(C)C)NC(=O)[C@H](Cc2ccccc2)NC(=O)[C@H](CCC(=O)O)NC(=O)[C@H](Cc2ccccc2)NC(=O)[C@H](Cc2c[nH]c3ccccc23)NC(=O)[C@H]([C@@H](C)O)NC1=O", "system": "human serum", "how to read": "baseline: cyclic over linear peptide", "quantity": "serum half-life", "result": "130 fold"}
{"SMILES": "COCC(=O)NCCSc1c(-c2ccc(Br)cc2)[nH]c2ccccc12", "system": "rat", "quantity": "Vd", "result": "1.6 L/kg"}
{"SMILES": "CC[C@H](C)[C@H](NC(=O)[C@H](CCCCN)NC(=O)CNC(=O)[C@H](CC(C)C)NC(=O)[C@@H](NC(=O)[C@H](C)NC(=O)[C@H](CCCCN)NC(=O)CNC(=O)[C@H](C)NC(=O)CNC(=O)[C@H](CCCCN)NC(=O)[C@H](CCSC)NC(=O)[C@H](CCCCN)NC(=O)[C@@H](NC(=O)[C@H](Cc1c[nH]c2ccccc12)NC(=O)[C@H](CC(C)C)NC(=O)[C@H](CCC(=O)O)NC(=O)[C@H](CCCCN)NC(=O)[C@H](CC(C)C)NC(=O)[C@@H](N)CC(C)C)[C@@H](C)O)C(C)C)C(=O)N[C@@H](CCCCN)C(=O)NCC(=O)N[C@@H](CC(C)C)C(=O)N[C@@H](CC(C)C)C(=O)O", "assay": "acrylamide quenching", "system": "POPE:DOPG 3:1 vesicles", "conditions": "2 µM, 250 µM total lipid, with: acrylamide", "quantity": "Stern-Volmer constant", "result": "1.51 ± 0.08 M⁻¹"}
{"SMILES": "COc1ccc(F)cc1S(=O)(=O)Nc1cnc2c(c1)C(=O)NCCO2", "assay": "ultracentrifugation", "system": "human plasma", "quantity": "unbound fraction", "result": "0.196 to 0.207"}
{"SMILES": "CC(C)[C@H](NC(=O)CNC(=O)[C@H](CCC(N)=O)NC(=O)[C@H](C)N)C(=O)O", "system": "human", "conditions": "intravenous infusion, 45 mg/kg/h, 2 h infusion", "quantity": "subjects with any adverse event", "result": "50%"}
{"SMILES": "Cc1cccc(O[C@H]2CCC[C@@H](C(C)CNCc3ccncc3)C2)c1 (relative stereo)", "system": "APP/PS1 mice, brain", "conditions": "oral, 25 mg/kg/day, 7 months", "quantity": "brain concentration", "result": "100 to 1000 nM"}
{"SMILES": "Cc1cc(-c2ccc3ccccc3c2)nnc1NCCN1CCN(C)CC1", "system": "female rat, plasma", "conditions": "oral", "quantity": "bioavailability", "result": "35.6%"}
{"SMILES": "CC[C@H](C)C(=O)N1CCC(NC(=O)Nc2ccc(OC(F)(F)F)c(F)c2)CC1", "system": "human, plasma", "conditions": "oral, 2 mg, single dose, healthy volunteers", "quantity": "Cmax", "result": "4.69 ng/mL"}
{"note": "Some of these lines once more:"}
{"SMILES": "COCC(=O)NCCSc1c(-c2ccc(Br)cc2)[nH]c2ccccc12", "system": "rat", "quantity": "Vd", "result": "1.6 L/kg"}
